Results from different studies.
Each numbered part is a random draw from the data of one study; scales do not carry over between parts.

Block 1
Target: RNA binding protein fox-1 homolog 2, RRM domain, GST-SBP tag (RBFOX2, Homo sapiens, UniProt O43251-10, residues 100-194)
Method: RNA Bind-n-Seq
Form: RNA
Matrix: in vitro
Concentration: 365 nM
Notes: natural RNA segment, single round, ends assumed
Reference: no-protein control
Direction: higher = stronger binding
Measurement: RBNS enrichment (R)
All sequences stand within: GGGAGUUCUACAGUCCGACGAUC … UGGAAUUCUCGGGUGCCAA
Target sequence (chain): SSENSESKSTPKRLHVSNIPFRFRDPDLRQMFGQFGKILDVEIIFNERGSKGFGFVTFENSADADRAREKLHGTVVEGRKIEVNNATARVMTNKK
GGUUUUGUAUAUGGGAUUUUCUAUUUAUAUAGCUUCUAUUUGUAUAUUUUGAGAUAAUUUAUUUAAUAUACUUUUAUAUAAAUAAAGGUGAUUGGGAAUUGAGACAAUCG: 0.989
AGGAGGAGGAGACAGUCUUCCUCUUUAAGUUACAGAGAGCCGUAAGCUAAAGGACCUGCCUAGGAUUAUAAUAUUUGAAGAAUGAACUUUUAAAUUCUUGCAAUAACGAA: 0.633
GAGCGCCAAUGAGGUUCCCUGCAACCCCCGCCCUCCAGCCCACCGCCCAACCUUUUACAAAUGGCAUUUUCUUAAUUGAAAAUCCGGGAAGCAGGUGUGAUUACUUUUUU: 0.354
UUGCAAAAAUUUCUACAAAAAUUGUUUUCUUCAUCCUUGUGGUGCUUAUUCAUCUGAGCCGUCUCCACAGUCCCAAUGCCUCUGCUUUUUGUUUUACUUUUGUAGCAUAA: 0.973
ACGAGUUUAAAAAUUAAGAGCGAUUAGCUGUUCACUUUGGUAACAGGUAGUUAAGUGUCACACAAGGUGUUGUUGCAAUGGCAUGACGGUGACCUGUUGACGUAACUAAG: 0.935
AAGAUGUGUAUAUCGACACUAGGUCAGAAAGUGUAUGCGUUAUAAUAAAGUUCUGGUUCUAACUCCAGCCUGAGUGGGGUCCAUUCUGUCAUGUUUGUUGGGUACGGGUU: 2.28
AGCUAUUGUGGGUGACAGGAGCAGUGUUUUCCUGCUGGACCCGCAAGCCACCAGCUAUUUCCUGGUGACACAAGCUCUUCUCAGGCGGGGCUGCCUGCAGGCUCCCGUUU: 0.344
UGGAAGAAAGAUGGAGCUCCUCCACAGAGACAGAAAGAAACCACAGCAAGAAAACAGACCUCAAGUUUCCACUCUGACCUGCCAGGUGGCCACUGGGUAAACAAGUCCUU: 0.577
AAUAGUCUUUCCUGUACUUACCAGAUUUCAAGUAUUCAUAACUUGACUCCCUAAGUGUACAAGUUGGGAAUAGUACAGGGCCAAGUUCAAGUCGCAUAUGCUGUACUGUU: 0.502

Block 2
Target: Interferon regulatory factor 5, full length, phosphomimetic (IRF5, Homo sapiens, UniProt Q13568-2, residues 1-514, S451D/S453D/S456D/S462D)
Method: protein-binding microarray
Form: double-stranded DNA, one strand shown
Matrix: in vitro
Concentration: 940 nM top
Notes: 60-bp whole probe
With: salmon DNA 0.4 mg/ml
Reference: random background probes
Direction: higher = stronger binding
Measurement: fitted relative affinity
All sequences stand within: GCCTAGCAC … GTCTTGATTCGCTTGACGCTGCTG
GACGGTATCGACACTGGGGGCGTGCTA: 5.52 z-score
TTAGATCTCAGATTGGATTAGTGCTAG: -0.272 z-score
TCAACTTGGAATTTCCCACTGTGCTAG: -0.125 z-score
TTAGGTATCGGTTTCGGTTTGTGCTAG: 12.3 z-score
TTAGGACTGCTTATCCTTTCGTGCTAG: -0.351 z-score
TCAGTTTCTCCTTTCCAACTGTGCTAG: 5.42 z-score
TCAAGTCCCGAGAATGGTACTGTGCTA: -0.113 z-score
TCACTGATCCATTTTGGACTGTGCTAG: -0.0874 z-score
TTAGGTCTCTTACTGCTTTAGTGCTAG: 0.202 z-score
GACGAGTTCGGGACTGGAGACGTGCTA: -0.582 z-score
TCAACCATCCTGTGTCTTACTGTGCTA: 0.429 z-score
GACGGTCTCGCTATCGGGACGTGCTAG: 1.27 z-score

Block 3
Target: PABPC1L2, full length, GST fusion (mouse, UniProt A0ABA7IW68)
Method: RNAcompete
Form: RNA
Matrix: in vitro
Concentration: 20 nM
Notes: 7-mer, probes averaged, single round
Reference: mean of 7-mers
Direction: higher = stronger binding
Measurement: 7-mer Z-score
Construct (chain): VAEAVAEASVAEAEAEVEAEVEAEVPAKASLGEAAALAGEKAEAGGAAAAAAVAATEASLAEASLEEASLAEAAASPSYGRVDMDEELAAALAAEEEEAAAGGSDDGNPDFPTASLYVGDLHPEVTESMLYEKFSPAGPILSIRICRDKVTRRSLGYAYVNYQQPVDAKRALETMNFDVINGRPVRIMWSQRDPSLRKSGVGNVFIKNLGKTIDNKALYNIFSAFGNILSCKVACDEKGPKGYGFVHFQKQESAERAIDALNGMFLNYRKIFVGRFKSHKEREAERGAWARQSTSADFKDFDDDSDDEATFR
GAUCCGG: -0.115
UGUUUCU: -0.387
GCGUUGU: -0.113
UAGUCGA: -0.226
UCGAUCC: -0.407
CACUAGA: -0.0663
GAACUUU: -0.206
AUUACUG: -0.219
CGGAAUG: -0.0699

Mixed results
PhoQ, residues 284 288 289 292 302 303 WSHMKI — fold induction (PhoP, residues 12 14 15 18 19 VQALL (Escherichia coli, UniProt P23836); Sort-seq, refers to: YFP reporter; E. coli; PhoQ-PhoP variant library, with: 10 µM Mg2+; reference: high Mg2+ state, higher = stronger signaling): 8.22

A few entries again (block 1):
ACGAGUUUAAAAAUUAAGAGCGAUUAGCUGUUCACUUUGGUAACAGGUAGUUAAGUGUCACACAAGGUGUUGUUGCAAUGGCAUGACGGUGACCUGUUGACGUAACUAAG: 0.935
AAGAUGUGUAUAUCGACACUAGGUCAGAAAGUGUAUGCGUUAUAAUAAAGUUCUGGUUCUAACUCCAGCCUGAGUGGGGUCCAUUCUGUCAUGUUUGUUGGGUACGGGUU: 2.28
AGCUAUUGUGGGUGACAGGAGCAGUGUUUUCCUGCUGGACCCGCAAGCCACCAGCUAUUUCCUGGUGACACAAGCUCUUCUCAGGCGGGGCUGCCUGCAGGCUCCCGUUU: 0.344
UGGAAGAAAGAUGGAGCUCCUCCACAGAGACAGAAAGAAACCACAGCAAGAAAACAGACCUCAAGUUUCCACUCUGACCUGCCAGGUGGCCACUGGGUAAACAAGUCCUU: 0.577
AAUAGUCUUUCCUGUACUUACCAGAUUUCAAGUAUUCAUAACUUGACUCCCUAAGUGUACAAGUUGGGAAUAGUACAGGGCCAAGUUCAAGUCGCAUAUGCUGUACUGUU: 0.502
